{"data": "Experimental data collected from several papers", "matrix": "plasma", "note": "Protocols differ between the studies behind these lines. ± gives the spread as reported."}
{"Structure (SMILES)": "COC(=O)c1ccc2c(c1)NC(=O)/C2=C(\\Nc1ccc(N(C)C(=O)CN2CCN(C)CC2)cc1)c1ccccc1", "test system": "human moderate liver impairment", "conditions": "oral, 100 mg twice daily, geometric mean", "quantity": "Cmax steady state", "result": "55.7 ng/mL"}
{"Structure (SMILES)": "COc1cccc(-c2ccc(NC(=O)C3=C(C(=O)O)CCC3)c(F)c2)c1", "test system": "male healthy human", "conditions": "oral, 50 mg daily, day 13-14, not pre-dosed", "scale": "relative to: day 0-1", "quantity": "Cmax accumulation ratio", "result": 2.16}
{"Structure (SMILES)": "CN(C)C/C=C/C(=O)Nc1cc2c(Nc3ccc(F)c(Cl)c3)ncnc2cc1O[C@H]1CCOC1", "test system": "human", "conditions": "oral, 10 mg once daily, day 27, geometric mean", "quantity": "Cmax at steady state", "result": "3.18 ng/mL"}
{"Structure (SMILES)": "CCCC(CCC)C(=O)O", "assay": "regression tree, refers to: hearing loss", "test system": "human", "conditions": "intravenous", "quantity": "Cmax breakpoint", "result": "> 276000 ng/mL"}
{"Structure (SMILES)": "CC(C)c1nc(N(C)S(C)(=O)=O)nc(-c2ccc(F)cc2)c1/C=C/[C@@H](O)C[C@@H](O)CC(=O)O", "test system": "human", "conditions": "oral, together with: finerenone dosed 4.25 h after", "scale": "relative to: with over without finerenone", "quantity": "Cmax ratio", "result": "96.8%"}
{"Structure (SMILES)": "CCn1c(C(=O)c2cc(C)cc(C#N)c2)c(C(C)C)c(=O)[nH]c1=O", "test system": "healthy humans", "conditions": "oral, 150 mg once daily, 7 days", "quantity": "Cmax at steady state", "result": "740 ± 248 ng/mL"}
{"Structure (SMILES)": "CC[C@@H]1C(=O)N(C)c2cnc(Nc3ccc(C(=O)N[C@H]4CC[C@H](N5CCN(CC6CC6)CC5)CC4)cc3OC)nc2N1C(C)C", "test system": "human", "conditions": "intravenous infusion, 150 mg over 2 h, first infusion", "quantity": "Cmax geometric mean", "result": "235 ng/mL"}
{"Structure (SMILES)": "O=C(NC[C@H]1CN(c2ccc(N3CCOCC3=O)cc2)C(=O)O1)c1ccc(Cl)s1", "test system": "human, normal renal function", "conditions": "oral, 10 mg, together with: erythromycin at steady state", "scale": "relative to: same subjects, compound alone", "quantity": "Cmax increase", "result": "~40%"}
{"note": "Some of these lines once more:"}
{"Structure (SMILES)": "O=C(NC[C@H]1CN(c2ccc(N3CCOCC3=O)cc2)C(=O)O1)c1ccc(Cl)s1", "test system": "human, normal renal function", "conditions": "oral, 10 mg, together with: erythromycin at steady state", "scale": "relative to: same subjects, compound alone", "quantity": "Cmax increase", "result": "~40%"}
